Assay results gathered from unrelated publications.
Every numbered part comes from another study and shows a few of its results, in no order.
Sequence of UniProt P20794 (whole entry, looked up): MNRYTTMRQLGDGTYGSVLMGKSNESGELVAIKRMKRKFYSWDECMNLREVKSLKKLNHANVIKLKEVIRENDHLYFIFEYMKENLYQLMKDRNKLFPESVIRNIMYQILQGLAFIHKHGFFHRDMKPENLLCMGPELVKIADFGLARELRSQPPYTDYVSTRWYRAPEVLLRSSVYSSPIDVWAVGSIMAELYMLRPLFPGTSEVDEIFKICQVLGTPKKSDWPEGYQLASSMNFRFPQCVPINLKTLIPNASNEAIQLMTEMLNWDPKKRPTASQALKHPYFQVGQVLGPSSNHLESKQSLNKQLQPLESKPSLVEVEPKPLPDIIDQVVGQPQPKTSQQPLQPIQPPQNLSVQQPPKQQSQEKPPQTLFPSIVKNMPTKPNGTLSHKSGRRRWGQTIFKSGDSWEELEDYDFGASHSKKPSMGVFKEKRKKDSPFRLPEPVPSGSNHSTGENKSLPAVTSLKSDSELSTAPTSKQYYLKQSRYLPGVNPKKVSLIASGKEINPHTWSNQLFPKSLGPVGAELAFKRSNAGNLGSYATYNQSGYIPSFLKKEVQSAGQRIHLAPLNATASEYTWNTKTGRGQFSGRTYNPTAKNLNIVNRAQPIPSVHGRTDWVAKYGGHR
Sequence of UniProt O60331 (whole entry, looked up): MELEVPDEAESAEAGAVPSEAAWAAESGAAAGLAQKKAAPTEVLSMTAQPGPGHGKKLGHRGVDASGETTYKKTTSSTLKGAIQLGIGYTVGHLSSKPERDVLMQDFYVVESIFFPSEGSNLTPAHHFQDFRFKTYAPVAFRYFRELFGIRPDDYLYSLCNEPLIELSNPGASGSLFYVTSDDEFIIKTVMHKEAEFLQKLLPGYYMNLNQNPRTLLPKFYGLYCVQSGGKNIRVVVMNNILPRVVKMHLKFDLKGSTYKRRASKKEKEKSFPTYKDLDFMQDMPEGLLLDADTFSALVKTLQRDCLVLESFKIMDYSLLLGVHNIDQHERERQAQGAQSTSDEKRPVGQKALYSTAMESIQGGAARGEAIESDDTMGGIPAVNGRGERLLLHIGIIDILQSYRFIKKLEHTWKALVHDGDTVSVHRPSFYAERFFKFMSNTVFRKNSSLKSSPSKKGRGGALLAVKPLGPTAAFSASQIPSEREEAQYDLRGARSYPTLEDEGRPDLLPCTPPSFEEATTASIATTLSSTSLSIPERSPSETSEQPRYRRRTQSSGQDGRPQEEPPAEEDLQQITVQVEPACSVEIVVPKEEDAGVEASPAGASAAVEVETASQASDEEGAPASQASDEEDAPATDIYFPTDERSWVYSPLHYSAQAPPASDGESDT
Sequence of UniProt P51955 (whole entry, looked up): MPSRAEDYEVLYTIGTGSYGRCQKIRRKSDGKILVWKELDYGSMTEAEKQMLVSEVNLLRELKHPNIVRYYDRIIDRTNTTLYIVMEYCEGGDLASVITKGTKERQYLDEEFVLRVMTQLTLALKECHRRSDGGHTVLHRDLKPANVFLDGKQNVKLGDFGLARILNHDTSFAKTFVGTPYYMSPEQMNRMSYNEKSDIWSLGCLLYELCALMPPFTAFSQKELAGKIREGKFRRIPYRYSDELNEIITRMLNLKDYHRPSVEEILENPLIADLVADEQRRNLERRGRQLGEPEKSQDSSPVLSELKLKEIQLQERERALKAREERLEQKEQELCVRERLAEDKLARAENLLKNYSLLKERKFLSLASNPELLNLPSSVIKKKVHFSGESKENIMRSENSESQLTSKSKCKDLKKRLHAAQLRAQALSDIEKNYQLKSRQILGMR
Sequence of UniProt Q9Y616 (whole entry, looked up): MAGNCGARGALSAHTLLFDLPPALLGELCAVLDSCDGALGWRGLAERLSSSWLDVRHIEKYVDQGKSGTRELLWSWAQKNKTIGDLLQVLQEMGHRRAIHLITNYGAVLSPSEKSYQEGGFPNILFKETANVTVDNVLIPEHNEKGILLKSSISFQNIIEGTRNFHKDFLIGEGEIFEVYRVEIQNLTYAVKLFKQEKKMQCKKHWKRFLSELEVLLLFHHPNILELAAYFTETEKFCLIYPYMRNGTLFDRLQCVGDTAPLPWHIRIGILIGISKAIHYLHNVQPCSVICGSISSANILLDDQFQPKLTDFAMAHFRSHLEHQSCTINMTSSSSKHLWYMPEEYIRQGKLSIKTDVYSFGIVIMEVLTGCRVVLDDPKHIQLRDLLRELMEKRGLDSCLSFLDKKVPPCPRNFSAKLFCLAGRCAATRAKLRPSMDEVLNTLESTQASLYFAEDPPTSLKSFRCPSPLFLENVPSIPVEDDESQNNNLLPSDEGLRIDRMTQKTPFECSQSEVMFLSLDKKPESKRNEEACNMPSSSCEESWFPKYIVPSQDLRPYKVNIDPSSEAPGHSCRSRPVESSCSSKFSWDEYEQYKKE
Sequence of UniProt Q9H422 (whole entry, looked up): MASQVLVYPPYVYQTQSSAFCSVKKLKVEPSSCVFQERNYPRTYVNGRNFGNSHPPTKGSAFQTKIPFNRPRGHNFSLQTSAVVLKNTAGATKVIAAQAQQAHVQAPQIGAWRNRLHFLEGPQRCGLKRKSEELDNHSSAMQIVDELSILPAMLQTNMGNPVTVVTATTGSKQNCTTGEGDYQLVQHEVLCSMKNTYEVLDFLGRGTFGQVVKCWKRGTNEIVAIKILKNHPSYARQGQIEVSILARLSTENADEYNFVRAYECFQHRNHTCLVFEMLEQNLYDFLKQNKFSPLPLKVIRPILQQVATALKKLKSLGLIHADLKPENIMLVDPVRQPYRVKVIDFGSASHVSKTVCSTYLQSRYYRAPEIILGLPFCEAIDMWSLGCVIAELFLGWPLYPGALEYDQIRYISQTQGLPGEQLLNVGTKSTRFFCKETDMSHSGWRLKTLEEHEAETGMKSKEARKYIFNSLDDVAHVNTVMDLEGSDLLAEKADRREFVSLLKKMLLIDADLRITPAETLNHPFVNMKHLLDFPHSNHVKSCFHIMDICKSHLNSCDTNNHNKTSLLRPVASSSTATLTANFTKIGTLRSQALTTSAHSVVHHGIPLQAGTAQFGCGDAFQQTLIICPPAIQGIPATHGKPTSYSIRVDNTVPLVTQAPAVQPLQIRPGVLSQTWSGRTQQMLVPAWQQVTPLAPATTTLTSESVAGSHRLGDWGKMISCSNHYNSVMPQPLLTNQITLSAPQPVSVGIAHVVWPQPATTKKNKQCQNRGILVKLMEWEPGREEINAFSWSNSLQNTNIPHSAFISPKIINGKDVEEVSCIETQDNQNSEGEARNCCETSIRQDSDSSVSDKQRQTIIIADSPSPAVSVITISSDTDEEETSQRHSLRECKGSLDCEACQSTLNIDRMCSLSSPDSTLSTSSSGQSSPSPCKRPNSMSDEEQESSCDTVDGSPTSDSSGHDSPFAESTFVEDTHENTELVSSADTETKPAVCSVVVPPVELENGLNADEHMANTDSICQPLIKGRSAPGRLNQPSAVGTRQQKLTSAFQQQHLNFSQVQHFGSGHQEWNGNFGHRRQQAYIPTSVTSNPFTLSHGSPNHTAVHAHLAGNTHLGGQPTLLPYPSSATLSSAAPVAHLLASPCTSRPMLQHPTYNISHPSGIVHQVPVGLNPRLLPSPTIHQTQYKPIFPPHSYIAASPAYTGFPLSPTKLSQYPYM
Sequence of UniProt P07333 (whole entry, looked up): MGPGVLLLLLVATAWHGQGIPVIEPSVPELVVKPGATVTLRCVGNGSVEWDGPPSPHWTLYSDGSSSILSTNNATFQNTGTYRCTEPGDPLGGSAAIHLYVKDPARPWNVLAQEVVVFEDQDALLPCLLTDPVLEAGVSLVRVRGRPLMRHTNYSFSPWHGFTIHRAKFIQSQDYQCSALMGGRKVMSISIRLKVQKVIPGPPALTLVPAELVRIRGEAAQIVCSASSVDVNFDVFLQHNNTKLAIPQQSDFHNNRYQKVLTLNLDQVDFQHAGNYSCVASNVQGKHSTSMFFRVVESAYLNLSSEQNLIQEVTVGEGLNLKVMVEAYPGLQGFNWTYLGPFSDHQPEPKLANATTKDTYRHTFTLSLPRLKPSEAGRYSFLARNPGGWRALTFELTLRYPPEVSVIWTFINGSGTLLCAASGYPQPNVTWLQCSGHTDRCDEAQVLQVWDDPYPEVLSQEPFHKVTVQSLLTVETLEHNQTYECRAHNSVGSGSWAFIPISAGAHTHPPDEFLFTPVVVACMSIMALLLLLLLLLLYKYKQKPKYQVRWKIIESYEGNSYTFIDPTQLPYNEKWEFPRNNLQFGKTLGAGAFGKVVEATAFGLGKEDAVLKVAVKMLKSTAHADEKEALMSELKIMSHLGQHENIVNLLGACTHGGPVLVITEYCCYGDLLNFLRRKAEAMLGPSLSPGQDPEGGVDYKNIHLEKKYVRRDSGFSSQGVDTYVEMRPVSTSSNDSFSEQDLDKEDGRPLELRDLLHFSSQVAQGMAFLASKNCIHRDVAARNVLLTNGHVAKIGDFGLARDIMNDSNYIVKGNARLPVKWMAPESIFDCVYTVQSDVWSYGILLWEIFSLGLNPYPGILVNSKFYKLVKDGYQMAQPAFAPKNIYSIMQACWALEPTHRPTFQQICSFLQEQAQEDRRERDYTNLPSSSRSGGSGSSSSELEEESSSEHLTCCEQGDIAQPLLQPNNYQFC

Study 1 — technique: Phase 2a trial; species: idiopathic pulmonary fibrosis patients
SMILES: CC(C)n1cnc(-c2ccc(F)cc2)c1-c1ncc(C(=O)Nc2ccc(N3CCN(C)CC3)cc2)[nH]1
item: blood creatine phosphokinase increased; 60 mg once daily, grade 5 maximum intensity — “patients with adverse events”: 0%.
The “patients with adverse events” was 0% (item: chest discomfort; 30 mg once daily, grade 2 maximum intensity).
It gave 0% for “patients with adverse events” (item: muscular weakness; 60 mg once daily, grade 3 maximum intensity).
It gave 0% for “patients with adverse events” (item: muscular weakness; 30 mg once daily, grade 1 maximum intensity).
For item: vision blurred; 30 mg once daily, grade 1 maximum intensity: “patients with adverse events” read 0%.
The “patients with adverse events” was 0% (item: eye disorders (SOC); 60 mg once daily, grade 5 maximum intensity).
item: gamma-glutamyltransferase increased; 30 mg once daily, grade 2 maximum intensity — “patients with adverse events”: 0%.
item: tri-iodothyronine increased; 30 mg once daily, grade 3 maximum intensity — “patients with adverse events”: 0%.
For item: blood bilirubin increased; dose not given, grade 4 maximum intensity, all arms: “patients with adverse events” read 0%.
The “patients with adverse events” was 0% (item: blood alkaline phosphatase increased; 30 mg once daily, grade 1 maximum intensity).

Study 2 — read-out: enzyme activity; mode: inhibitor; concentration: 10 µM
Target: Calcium/calmodulin-dependent protein kinase type II subunit alpha (CAMK2A, Homo sapiens, UniProt Q9UQM7)
Sequence of UniProt Q9UQM7 (whole entry, looked up): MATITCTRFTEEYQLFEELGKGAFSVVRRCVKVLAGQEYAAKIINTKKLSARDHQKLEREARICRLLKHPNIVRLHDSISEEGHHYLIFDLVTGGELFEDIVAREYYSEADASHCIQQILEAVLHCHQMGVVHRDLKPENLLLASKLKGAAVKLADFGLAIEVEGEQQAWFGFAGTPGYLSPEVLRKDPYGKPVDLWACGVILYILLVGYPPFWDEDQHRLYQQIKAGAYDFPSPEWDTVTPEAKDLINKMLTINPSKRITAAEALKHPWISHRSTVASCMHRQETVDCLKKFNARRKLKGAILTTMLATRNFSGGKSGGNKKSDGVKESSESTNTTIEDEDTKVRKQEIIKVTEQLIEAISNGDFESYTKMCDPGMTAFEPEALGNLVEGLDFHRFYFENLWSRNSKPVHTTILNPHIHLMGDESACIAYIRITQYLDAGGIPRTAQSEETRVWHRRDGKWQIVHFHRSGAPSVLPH
The inhibition of `CCCC(N)C(=O)O` (racemic) is reported as -13%.
The inhibition of `COc1ccc2c(c1)OC[C@@H](c1cc(O)c(OC)c(OC)c1O)C2` is reported as 17%.
For `CSCC1CN(/N=C/c2ccc([N+](=O)[O-])o2)C(=O)O1` (stereo not drawn), the inhibition was -13%.
The inhibition of `CNS(=O)(=O)C[C@H]1CC[C@H](N(C)c2[nH]cnc3nccc2-3)CC1` is reported as 2%.
`Cc1cccc(N(C)C(=S)Oc2ccc3ccccc3c2)c1` has an inhibition of -9%.
With `O=c1c(O[C@@H]2OC[C@@H](O)[C@H](O)[C@H]2O)c(-c2ccc(O)c(O)c2)oc2cc(O)cc(O)c12` the inhibition was -66%.
`C[C@H](C[C@H](O)[C@H]1OC1(C)C)C1=C2C[C@H](O)[C@H]3[C@@]4(C)CCC(=O)C(C)(C)[C@@H]4CC[C@]3(C)[C@@]2(C)CC1` has an inhibition of -31%.
With `C[C@H]1CC[C@@H]2N(C1)C[C@H]1[C@@H]3C[C@H]4[C@@H](CC(=O)[C@H]5C[C@@H](O[C@@H]6O[C@H](CO)[C@@H](O)[C@H](O)[C@H]6O)CC[C@@]54C)[C@@H]3CC[C@@H]1[C@]2(C)O` the inhibition was 13%.

Study 3 — read-out: enzyme activity; mode: inhibitor; concentration: 0.5 µM; reference: control
Target: Mitogen-activated protein kinase kinase kinase 3 (MAP3K3, Homo sapiens, UniProt Q99759)
Target sequence (Q99759 1-626): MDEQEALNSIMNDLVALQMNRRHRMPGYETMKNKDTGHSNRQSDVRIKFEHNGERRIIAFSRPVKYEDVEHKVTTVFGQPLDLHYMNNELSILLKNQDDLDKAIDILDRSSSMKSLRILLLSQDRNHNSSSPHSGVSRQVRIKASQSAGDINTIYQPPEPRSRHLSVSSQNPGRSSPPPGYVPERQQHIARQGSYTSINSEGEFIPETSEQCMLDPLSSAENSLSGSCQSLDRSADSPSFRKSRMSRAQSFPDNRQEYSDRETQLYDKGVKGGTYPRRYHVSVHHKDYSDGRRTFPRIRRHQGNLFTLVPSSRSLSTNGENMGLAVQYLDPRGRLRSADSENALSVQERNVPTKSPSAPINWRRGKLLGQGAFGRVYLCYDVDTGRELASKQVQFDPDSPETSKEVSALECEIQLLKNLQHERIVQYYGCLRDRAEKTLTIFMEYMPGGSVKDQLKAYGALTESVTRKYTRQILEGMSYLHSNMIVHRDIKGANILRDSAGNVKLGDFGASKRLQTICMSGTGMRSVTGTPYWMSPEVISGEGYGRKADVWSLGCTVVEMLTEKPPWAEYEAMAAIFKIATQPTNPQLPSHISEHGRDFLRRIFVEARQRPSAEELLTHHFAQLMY
With `CC(C)[C@H](CO)Nc1nc(Nc2cc(N)cc(Cl)c2)c2ncn(C(C)C)c2n1` the remaining activity was 100%.
`O=C(O)c1ccc2c3c1cccc3c(=O)n1c3ccccc3nc21` gave a remaining activity of 81%.
`COc1cc2ncnc(Nc3ccc(Oc4ccccc4)cc3)c2cc1OC` gave a remaining activity of 94.5%.
With `COc1ccc(OC)c2c(=S)c3ccccc3[nH]c12` the remaining activity was 117%.
`COc1ccc(C(=O)Nc2sc3c(c2C(N)=O)CCCC3)cc1OC` has a remaining activity of 100%.
For `Oc1ccc(-c2nc(-c3ccncc3)c(-c3ccc(F)cc3)[nH]2)cc1`, the remaining activity was 103%.
With `NCCNc1ncc(C(N)=O)c(Nc2cccc(C(F)(F)F)c2)n1` the remaining activity was 104%.
`CNC(=O)c1cc(Oc2ccc(NC(=O)Nc3ccc(Cl)c(C(F)(F)F)c3)cc2)ccn1` gave a remaining activity of 107%.
`Nc1ccc2ncnc(NCCc3ccc(Oc4ccccc4)cc3)c2c1` has a remaining activity of 106%.
With `O=C(Nc1cccc(Nc2cc(Nc3cccc(C(F)(F)F)c3)ncn2)c1)C1CC1` the remaining activity was 95.2%.
`O=C(CCCc1ccc(-c2ccccc2F)cc1)Nc1ccc(O)cc1` has a remaining activity of 108%.
With `N#CC(C#N)=C(N)/C(C#N)=C/c1ccc(O)cc1` the remaining activity was 78.6%.
For `Nc1[nH]nc2nc3ccccc3nc12`, the remaining activity was 103%.
For `CCOC(=O)c1c(C)[nH]c(/C=C2\C(=O)Nc3ccccc32)c1C`, the remaining activity was 92.8%.
With `O=C1NC(=O)C(c2cn(CCCn3ccnc3)c3ccccc23)=C1Nc1ccccc1` the remaining activity was 95.8%.
The remaining activity of `Cc1ccc(Nc2nccc(N(C)c3ccc4c(C)n(C)nc4c3)n2)cc1S(N)(=O)=O` is reported as 112%.

Study 4 — read-out: cell-free assay; technique: competition with immobilised ligand; concentration: 1 µM
SMILES: CNCc1ccccc1-c1csc([C@H](C)Nc2nc(C)nc3cc(OC)c(OC)cc23)c1
It gave 87% for remaining binding (MAP3K3 (Homo sapiens, UniProt Q99759)).
It gave 100% for remaining binding (MAPK12 (Homo sapiens, UniProt P53778)).
For IRAK3 (Homo sapiens, UniProt Q9Y616): remaining binding read 83%.
It gave 92% for remaining binding (NEK2 (Homo sapiens, UniProt P51955)).
LATS1 (Homo sapiens, UniProt O95835) — remaining binding: 100%.
The remaining binding was 100% (ERN1 (Homo sapiens, UniProt O75460)).
It gave 97% for remaining binding (HIPK3 (Homo sapiens, UniProt Q9H422)).
For MAK (Homo sapiens, UniProt P20794): remaining binding read 97%.
For PIK3CA (Homo sapiens, UniProt P42336): remaining binding read 71%.
For CSF1R (Homo sapiens, UniProt P07333): remaining binding read 91%.
PIP5K1C (Homo sapiens, UniProt O60331) — remaining binding: 100%.

Repeated from above (study 1):
For item: vision blurred; 30 mg once daily, grade 1 maximum intensity: “patients with adverse events” read 0%.
item: tri-iodothyronine increased; 30 mg once daily, grade 3 maximum intensity — “patients with adverse events”: 0%.
The “patients with adverse events” was 0% (item: eye disorders (SOC); 60 mg once daily, grade 5 maximum intensity).
The “patients with adverse events” was 0% (item: blood alkaline phosphatase increased; 30 mg once daily, grade 1 maximum intensity).
It gave 0% for “patients with adverse events” (item: muscular weakness; 30 mg once daily, grade 1 maximum intensity).
The “patients with adverse events” was 0% (item: chest discomfort; 30 mg once daily, grade 2 maximum intensity).
item: blood creatine phosphokinase increased; 60 mg once daily, grade 5 maximum intensity — “patients with adverse events”: 0%.
